Results of several laboratories.
Every numbered part comes from another study and shows a few of its results, in no order.

Series 1
Target: RNA binding protein fox-1 homolog 2, RRM domain, GST-SBP tag (RBFOX2, Homo sapiens, UniProt O43251-10, residues 100-194)
Technique: RNA Bind-n-Seq
Form: RNA
Sample: in vitro
Concentration: 365 nM
Setting: natural RNA segment, single round, ends assumed
Baseline: no-protein control
Reading: higher = stronger binding
Construct (chain): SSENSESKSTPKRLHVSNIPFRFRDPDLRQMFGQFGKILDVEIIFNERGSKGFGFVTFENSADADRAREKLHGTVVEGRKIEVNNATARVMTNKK
Sequence | RBNS enrichment (R)
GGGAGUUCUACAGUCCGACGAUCUUUUAUGCCACCAAUCACCAAAAAUUGAUACCACAUUCUUUAUUAUAAUGCUUUAUACUUUGCCAGGAAGAAGUAUAGCUAUAGUUGAGGUGUACCUAAGAAAUUAGCAAUGGAAUUCUCGGGUGCCAA | 1.01
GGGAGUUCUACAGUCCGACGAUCGUGUUGGGACAGCAGGAUAGGGUUCUAAAGGUGGUUUUCUAUCCAAACGACCAAAAAACCAACAGUAACACCAGUGAAACCCCACACUGUCGGGCUUAUAAAAAUCUGUGUGGAAUUCUCGGGUGCCAA | 0.445
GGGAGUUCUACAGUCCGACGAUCGAUACUUUUAUACUUGUUUCUGCUUUUGCUGCUCUUGAUCCCACCUUUGCUCCUGACAACCCUCAUUAAUAAAGACCAGUGAAGACCAAUGCUUUGCCACCACUCUCUUGUGGAAUUCUCGGGUGCCAA | 0.776
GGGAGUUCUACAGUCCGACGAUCGGAAUGGUGGAUACUGUCUUCUGACUCAGGCUCUAGGCUCCAUGGCUUCCUCUCUCUGGUCCUGCCACACAGAAGGAAAGCCCUGUCCAGGAUAAUGAGCGUUGCUGACAUGGAAUUCUCGGGUGCCAA | 0.271
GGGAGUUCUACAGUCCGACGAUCUUCAAAGUAGUUUUUUUUUUUUCAUUCUUUCCCAUAAGAAAAGACAAAAUAGACAAGGUCACUUAUCCUGCCAUAUUGUCUCUUUGUAUAUAAAGAUGUUCAUAUUUUAGUGGAAUUCUCGGGUGCCAA | 0.629
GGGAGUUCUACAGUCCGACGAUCAAUUAUGGUACUUAUUUAUGUAGUCACUGUAUUUCUGGAUUUUUAAAUUAAUAAAAAAGUUAAUUUUAAAAAUCAUCUGUAGUCUUGUUGCAUAAGUAAUUGACUCUCUGUGGAAUUCUCGGGUGCCAA | 0.76
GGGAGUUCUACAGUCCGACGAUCGCCUGGCCCACUUCUCUUUCUCUCCUCCAAAUGAGGAGUUAAAAAUGUUACUAGCAUAGCCCACCCGUGUAAUCCGUUGAAAAGGAACAAAAGGAAAAAAGAAAAGAAAGUGGAAUUCUCGGGUGCCAA | 0.45
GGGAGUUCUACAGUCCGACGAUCUCAGUUACCCUGAACAUGGGGAGUGCAUCACGAUAGGGUGUGGCUGACCUCCAUUGCUUACCUGCCUGAGUAGCCAGCUGCAUCCAUCUCUCAAAGAUACCUAGCCAGGCUGGAAUUCUCGGGUGCCAA | 0.641

Series 2
Target: Fragile X messenger ribonucleoprotein 1, C-terminal low-complexity region (Fmr1, Mus musculus, UniProt P35922)
Technique: RNA Bind-n-Seq
Form: RNA
Sample: in vitro
Concentration: 200 nM
Setting: whole 134-nt RNA, ends assumed
Together with: 150 mM KCl
Baseline: input library
Reading: higher = stronger binding
Sequence | log2 enrichment
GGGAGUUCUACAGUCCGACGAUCCAAGUCCUGUGCUACACAUCGUAUGUACCGAAUCGGGGAGGGGAGGGGAAAGGGGAAAGUAUUAUGUUACGCCGUUCGGAUCUGCACUUCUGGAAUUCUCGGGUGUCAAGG | 1.1
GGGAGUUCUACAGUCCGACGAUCUCAAGUCCUGUGCUACACAUCGUAUGUACCGAAUCGGGAGGGUUUGGGAAAGGGAAAGUAUUAUGUUACGCCGUUCGGAUCUGCACUUCCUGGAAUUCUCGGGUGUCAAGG | 1.22
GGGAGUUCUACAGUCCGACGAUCUGGCCCUGGUGGCAUGCGGGGAGGAAGAGGUGGCCUCAUGGAUCGUGGUGGUCCCGGUGGAAUGUUCAGAGGUGGCCGUGGUGGGGACAGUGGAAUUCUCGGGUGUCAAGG | 0.081
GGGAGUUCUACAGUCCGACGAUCAGUCCUGUGCUACACAUCGUAUGUACCGAAUCGGGUUUUUUUGGGUUUGGGUUUGGGAAAGUAUUAUGUUACGCCGUUCGGAUCUGCACUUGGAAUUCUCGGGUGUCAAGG | 0.495
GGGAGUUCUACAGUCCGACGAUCUGGCCCUCAAGCACUGCACAGAGGCCCUUCUUUCUCUUGGCCAGUACUCCAUGGCAGACUUCACAGGGCCUUGUCCAUUGGAAAUAGAACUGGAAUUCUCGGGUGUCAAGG | -1.26
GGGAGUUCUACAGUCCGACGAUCUGGCCCUGGUGGCAUGCGGGGAGGAAGAGGUGGCCUCAUGGAUCGUGGUGGUCCCGGUGUAAUGUUCAGAGGUGGCCGUGGUGGAGACAGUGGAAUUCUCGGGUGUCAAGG | -0.0493
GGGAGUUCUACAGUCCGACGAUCGUGCUACACAUCGUAUGUACCGAAUCGGGGAAAAAAAGGGGAAAAAAAGGGGUUUUUUUGGGGAAAGUAUUAUGUUACGCCGUUCGGAUCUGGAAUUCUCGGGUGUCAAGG | 0.281
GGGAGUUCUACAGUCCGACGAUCCAAGUCCUGUGCUACACAUCGUAUGUACCGAAUCGGGGAAAGGGAAAGGAAAGGGAAAGUAUUAUGUUACGCCGUUCGGAUCUGCACUUCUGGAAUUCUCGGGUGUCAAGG | 0.0901
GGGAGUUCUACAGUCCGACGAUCUGGGAGGUGGAUUUUGUUUAUUUUUUAAGCUCAUUUCCAGGGGUGGGAAUUUUUUUUUAAUAUGUGUCAUGAAUAAAGUUGUUUUUGAAAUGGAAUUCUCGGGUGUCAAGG | 0.104

Series 3
Target: RING finger protein unkempt homolog, zinc fingers 1-6, GST-SBP tag (UNK, Homo sapiens, UniProt Q9C0B0, residues 30-357)
Chain of UniProt Q9C0B0 (30-357, looked up): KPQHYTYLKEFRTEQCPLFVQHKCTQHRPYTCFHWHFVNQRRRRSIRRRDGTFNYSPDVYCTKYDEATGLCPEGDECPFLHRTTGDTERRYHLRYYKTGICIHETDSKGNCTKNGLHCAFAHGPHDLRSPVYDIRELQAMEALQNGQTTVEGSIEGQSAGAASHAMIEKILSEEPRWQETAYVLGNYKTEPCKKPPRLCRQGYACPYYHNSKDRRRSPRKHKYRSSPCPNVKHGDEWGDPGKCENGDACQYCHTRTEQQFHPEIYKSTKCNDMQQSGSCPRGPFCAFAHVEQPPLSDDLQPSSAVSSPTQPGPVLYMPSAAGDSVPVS
Technique: RNA Bind-n-Seq
Form: RNA
Sample: in vitro
Concentration: not given
Setting: RNA with constant flanks, human and mouse sites, ends assumed
Baseline: input RNA pool
Reading: higher = stronger binding
Sequence | bound/input enrichment [ratio]
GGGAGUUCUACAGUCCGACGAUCGAAGCCAUCUGUGUGGUGCCUUAGACCAGAGAAGUUAAAGAUCUGCUCCUAACAUUGAGGCUUCCUUGAGCCUUUUUAAAGCUGCAGUCUCAUUUCAUUACCUCAUUUGAACCUGCCCCUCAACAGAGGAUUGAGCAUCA | 0.188
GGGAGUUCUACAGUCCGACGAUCUAGUGUUUGCUUUGUGAACAUGUGUAUUGUAUAUAUUCUGUAUAGUUAUAUUGUACUGAAAUUAGCUUGUUUGAUAUAAGGAAAAUAUGUAUUGAGUACCUUUUUGCUAGCCUGAUUGUUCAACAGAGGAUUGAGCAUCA | 9.52
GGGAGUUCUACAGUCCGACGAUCAAGAGGGAUCUGUUUGCAAAAAUUAUUGAAGAUCAUCUGGCAAGCAGAAGUGAAGAGAACAUAGACCAGCUUGCAGGAUGAACAAGCUGCCCUGUUAGUGCAGUGCUUUGAAGUGGGACCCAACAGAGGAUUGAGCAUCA | 0.319
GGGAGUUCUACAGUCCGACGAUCGGGUUCUAUGAAUUUUUAAAUUGGUUUGAUGAAAGAGCAUGGUAUCCACUAGGAAGAAUAGUAGGUGGUACUGUUUACCCAGGGUUGAUGAUAACCGCUGGCCUUAUUCAUUGGAUUUUACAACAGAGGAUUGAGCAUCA | 0.421
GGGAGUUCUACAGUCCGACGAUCGUUACAGGUCCUGGUGGUGUUCCAGUUCAAGGCAGUAAAUAUGCAGCAGACCGUAACCAUUAUAGACGCUAUCCACGUCGUAGGGGUCCUCCACGCAAUUACCAGCAAAAUUACCAGAAUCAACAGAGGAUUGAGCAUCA | 0.214
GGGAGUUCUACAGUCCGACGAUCCUGAUCGGGAAGCAGGAGGGGCGAAAUAUCGAAGUGAUGAACUCCUUUGAGCUGCUGUCCCACACCGUGGAAGAGAAGAUUAUCAUUGACAAAGAAUAUUAUUACACCAAGGAGGAGCAGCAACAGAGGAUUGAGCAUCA | 0.351
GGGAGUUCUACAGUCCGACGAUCUCUGCACUCCAGCUUGAAAGUGCCUUUGGCUCGAGAUUCCAGCUUAGAAAGUGCCACCAUAAUAACGACAAUUUGUAGAGAGACCAAAAAUAUUUCGAGAUCACCAUAAUGCCUUUGGUUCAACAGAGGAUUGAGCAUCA | 0.265
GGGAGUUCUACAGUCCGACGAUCUCAAAAUUAUGGCAUCGUCAAAGCAUUGUGGUGUCUUUUUUACUGCUGCUUGCUGUGCUUAUAGCUACGUAUUAUGUUGAAGGAGUGCAUCAACAGUAUGUGCAACGUAUAGAGAAACAGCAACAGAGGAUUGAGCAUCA | 0.453

Series 4
Target: Interferon regulatory factor 5, full length, phosphomimetic (IRF5, Homo sapiens, UniProt Q13568-2, residues 1-514, K96S/S451D/S453D/S456D/S462D)
Technique: protein-binding microarray
Form: double-stranded DNA, one strand shown
Sample: in vitro
Concentration: 250 nM
Setting: 60-bp whole probe
Together with: salmon DNA 0.4 mg/ml
Baseline: random background probes
Reading: higher = stronger binding
Shared flanks, not repeated: GCCTAGCAC … GTCTTGATTCGCTTGACGCTGCTG
Sequence | log fluorescence [z-score]
GATGATATCAGACTGGAGACGTGCTAG | 0.247
TTAGAATTGAGTATCGATTAGTGCTAG | 7.13
TCTAATTTACTTTGGTTGGCGTGCTAG | 0.433
GACGGTATCCCACTGCTGACGTGCTAG | -0.187
TCATGTCTGTGTCACAGAGAGTGCTAG | 0.198
TCAGGTTTCCTTTTCCTTTAGTGCTAG | 1.6
TCAATCATTGTTTTCAGACTGTGCTAG | 0.915
TCAATTCGTCATTTCACACTGTGCTAG | 0.896
GACAGTTTCCTTTTCCTGACGTGCTAG | 1.79
GACGATATCGGGATTCGAGACGTGCTA | 1.25
GACGGCCTGGACACTGGGGACGTGCTA | -0.657
TTAGGTCTCCTTCTCCTTTGGTGCTAG | 0.022
TTAGGTATCGACGTTCGGTTAGTGCTA | 2.44
TTAGAAGTGGGGTTTCGATTAGTGCTA | 5.97
TTAGATTTCAGGCTCGATTAGTGCTAG | 0.503
GACGGTTTCGACAATGGGGACGTGCTA | 5.23
GACGATATTGGGACTGGAGACGTGCTA | 0.229
TTAGGACTGGGATTGGGTTAGTGCTAG | -0.393
GACGGTTTCGAATTTCGGGACGTGCTA | 4.92

Some of these lines once more (series 3):
Sequence | bound/input enrichment [ratio]
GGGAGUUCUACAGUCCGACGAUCAAGAGGGAUCUGUUUGCAAAAAUUAUUGAAGAUCAUCUGGCAAGCAGAAGUGAAGAGAACAUAGACCAGCUUGCAGGAUGAACAAGCUGCCCUGUUAGUGCAGUGCUUUGAAGUGGGACCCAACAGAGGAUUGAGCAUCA | 0.319
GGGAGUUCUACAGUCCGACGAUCGGGUUCUAUGAAUUUUUAAAUUGGUUUGAUGAAAGAGCAUGGUAUCCACUAGGAAGAAUAGUAGGUGGUACUGUUUACCCAGGGUUGAUGAUAACCGCUGGCCUUAUUCAUUGGAUUUUACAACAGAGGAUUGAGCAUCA | 0.421
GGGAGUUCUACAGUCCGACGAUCCUGAUCGGGAAGCAGGAGGGGCGAAAUAUCGAAGUGAUGAACUCCUUUGAGCUGCUGUCCCACACCGUGGAAGAGAAGAUUAUCAUUGACAAAGAAUAUUAUUACACCAAGGAGGAGCAGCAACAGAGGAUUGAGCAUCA | 0.351
